Assay results from different studies.
Every numbered part comes from another study and shows a few of its results, in no order. Changes are numbered by the printed parent chain.

Series 1 — method: protein binding microarray; form: double-stranded DNA, one strand shown; medium: in vitro; concentration: not given; relative to: not given; reading: higher = stronger binding
Target: Histone acetyltransferase KAT6A, winged helix 1, GST fusion (KAT6A, Homo sapiens, UniProt Q92794, residues 1-85)
Notes: 8-mer, flanks averaged, mean of 2 arrays, mostly near background
Residues (chain): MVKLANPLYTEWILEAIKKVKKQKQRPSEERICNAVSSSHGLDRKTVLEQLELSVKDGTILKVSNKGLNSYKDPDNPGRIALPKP
| Oligonucleotide | E-score |
| --- | --- |
| TTGAGCAA | -0.271 |
| AGAGACGC | 0.193 |
| CGGATACG | 0.302 |
| GATACTTA | -0.142 |
| CCACGAGC | -0.0136 |
| TTACTGAA | 0.00143 |
| CCAATAAA | -0.0903 |
| ATCCTAGC | -0.199 |
| CCGATCTA | 0.00548 |
| CCTCGCCC | 0.0714 |
| CACGGCTA | 0.408 |
| ACGCACAT | 0.0516 |
| AAGGGTCG | 0.157 |
| CGAAACCA | -0.0596 |
| ACCCTGTG | -0.0559 |
| ACGCCACG | 0.18 |
| AGCAATAT | -0.193 |

Series 2 — method: aptamer microarray, sandwich; form: DNA with 2'F-ANA; medium: in vitro; concentration: 200 nM; with: Cy3 exosite-II aptamer, 400 nM; reading: higher = stronger binding; oligonucleotide: GGTTGGTGTGGTTGG
Target: Prothrombin, mature alpha-thrombin (F2, Homo sapiens, UniProt P00734)
Notes: whole 15-mer aptamer, many near background
| Modification | mean fluorescence intensity [a.u.] |
| --- | --- |
| 2'F-ANA at 2 3 4 6 7 10 11 15 | 219 |
| 2'F-ANA at 4 5 6 7 8 10 14 15 | 51.9 |
| 2'F-ANA at 1 6 8 9 13 15 | 152 |
| 2'F-ANA at 1 4 6 8 9 12 13 | 191 |
| 2'F-ANA at 1 2 5 7 8 10 11 | 47.8 |
| 2'F-ANA at 1 2 3 4 6 8 10 13 15 | 50.5 |
| 2'F-ANA at 1 2 4 5 6 8 10 12 15 | 49.5 |
| 2'F-ANA at 3 5 6 10 13 15 | 52.6 |
| 2'F-ANA at 1 2 3 4 5 6 10 11 12 13 | 48 |
| 2'F-ANA at 2 6 7 8 9 11 12 13 14 15 | 142 |
| 2'F-ANA at 1 2 4 5 6 7 8 9 12 | 185 |
| 2'F-ANA at 1 2 4 7 8 12 14 15 | 72.8 |
| 2'F-ANA at 1 2 3 5 10 12 13 15 | 45.5 |
| 2'F-ANA at 1 2 5 6 7 8 9 11 13 14 | 158 |
| 2'F-ANA at 1 2 5 8 9 11 12 13 | 70 |
| 2'F-ANA at 1 2 3 9 10 15 | 64.8 |
| 2'F-ANA at 2 3 4 6 8 12 14 | 317 |
| 2'F-ANA at 1 3 6 8 9 10 14 | 58.8 |
| 2'F-ANA at 7 9 11 | 528 |
| 2'F-ANA at 4 6 11 12 13 14 15 | 86.6 |
| 2'F-ANA at 1 2 4 6 9 10 11 12 13 | 53 |
| 2'F-ANA at 2 3 5 6 7 9 10 11 15 | 53.4 |
| 2'F-ANA at 1 2 3 4 6 7 8 9 12 13 14 15 | 128 |
| 2'F-ANA at 6 7 9 10 12 | 192 |
| 2'F-ANA at 1 8 9 11 12 13 14 15 | 80.2 |

Series 3 — method: RNA Bind-n-Seq; form: RNA; medium: in vitro; concentration: 365 nM; relative to: no-protein control; reading: higher = stronger binding
Target: RNA binding protein fox-1 homolog 2, RRM domain, GST-SBP tag (RBFOX2, Homo sapiens, UniProt O43251-10, residues 100-194)
Notes: natural RNA segment, single round, ends assumed
Shared flanks, not repeated: GGGAGUUCUACAGUCCGACGAUC … UGGAAUUCUCGGGUGCCAA
Target sequence (chain): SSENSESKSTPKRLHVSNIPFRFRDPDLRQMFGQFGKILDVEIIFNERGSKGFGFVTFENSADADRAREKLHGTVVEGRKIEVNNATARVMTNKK
| Oligonucleotide | RBNS enrichment (R) |
| --- | --- |
| AGCUUGCUGUCAUUUCUGAACCCAGGAUCUGUCAUCAAAUGAAACAUGUUUAAAAAGUGACUCUGAAGGUGAAAAGAGUUUCAAGCAUUCCAAAUGAAUUCUCAGCGUUU | 0.638 |
| GAAGUUAACAUCAAGCCAUCAAACCUGGGUAUAGUGCAGAAAACGUGGCACACACUGACCACACAUUAGGCUGUGUCACCAUUGUGUGGUGUACCUGCUGGAAGAAUUCU | 0.448 |
| UGGAUAGAUGAAUACUGGGAUUGGCUCUGGAGCAUGUGUUUUGAGUUGAACCUUGCAGUCCUUUCUCUACGCCCGUGGAUUUUGUGGAAACACUUUGCAAUCUCUUUGUC | 5.47 |
| AAUCACAGGAAGUGAAGAACAUUUCAUUUAUCUGUUCUAAAAUUUCUGCUGUCAGAGUGUCUAAGAGACCCAGUUGGGCUGAAAGACAUGCUCUGUGCACAGGCACAGAG | 0.298 |
| GUUGGGGAGACAGAGGGGUUCAGACUUGGGAAGAAUCUGUCAGUGUGCAUGGAGUGAGGUGUGUGUGUGUGGAUGGAUGUGCACGUGUGCAUGCUUUUUUUCUUUUUGCC | 8.86 |
| UUUUGCCACAGACUUUGAAGAAACUUUUGGAUGUGGGGCAUCAUCCGCAUCUUUCUCUCUCCUCCAAAUGACAAAGUUUGGGGAAUUUUUGAAUUUUCCUAGCAUCGCCC | 1.83 |
| AAGAGGCCAGAUCCUGGCAUUUUGCACACAUUUUGGUGUAUAUACAGUGUAUCACUCAGUAAGAAUGAUAUGACUUGGCAACUGCAUAGCCACUGGCCAAGACUUGCUGA | 0.405 |
| ACAUCCUGGGGAAAUCGAGCAGAAAAACUGCACAGUUAUGUCAAAGGGCAAAAGUUUAGAAAUCCACAUACAUUGGUUCUUAGAUCUCUUAGGAAAUCCUGCACCGGUUU | 0.517 |
| UGUGUUUCAGGAUUAACUUCUACAUGCCUUUAAGUUUUUCUGAGUAUCAGCAUAUCAUUUAGACAUUGUGAAAAUGAAUUCCUAAACAUUUUCAUAAAACCGGUUAAUUU | 0.363 |
| CAUUUAAGGACUCUAAGCCAGAAUGGAAAAUUCACCAGGACUCCAUUCUUAAGCCUAUGCGAGUCCCCUAGAGAGAGGCAUUGUACUGAUAUAUAAAUAUUAUAUAAUAU | 0.682 |
| ACAGCUAACGAGGCUGCCUCCAGCAUUUCCUGAUUUCCUCUGUGGUAAUAAAAGCUUUCUGUGCUUAGGUCUGGGUUAGGUUGUGAAUUUUGUCACGUAACGACAACUAA | 0.455 |
| GUGGCUGCGGGCGUCUUGGUUGAAUCUUUUGCUACAAACCAUGUUUGCGUUUGAGCUCUCCAGGAUUUUACAUUUUUGGGUAACCUCAGUGAUUCCCAUUGGUGUAGGAA | 2.49 |

Series 4 — target: CCNB3, cyclin fold, Cln2 fusion (human); method: yeast growth competition, sequencing; medium: yeast; notes: weak parent motif; relative to: not given; reading: higher = stronger binding
Starting sequence: SLBP docking peptide (human); ARYKRKLLINDFG; partner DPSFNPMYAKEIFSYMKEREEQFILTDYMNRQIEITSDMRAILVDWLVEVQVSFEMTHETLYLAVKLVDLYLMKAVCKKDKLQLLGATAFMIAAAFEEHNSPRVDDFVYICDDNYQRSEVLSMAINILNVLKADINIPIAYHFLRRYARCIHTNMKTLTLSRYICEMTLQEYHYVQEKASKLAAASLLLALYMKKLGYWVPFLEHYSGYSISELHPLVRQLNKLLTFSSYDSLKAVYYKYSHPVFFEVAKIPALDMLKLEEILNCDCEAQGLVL
| Change | normalised enrichment score |
| --- | --- |
| ARYKRKLGINDFG [L8G] | -0.182 |
| AAYKRKLLINDFG [R2A] | -0.000954 |
| ARYKRKMLINDFG [L7M] | 0.284 |
| ARYKTKLLINDFG [R5T] | 0.0965 |
| APYKRKLLINDFG [R2P] | 0.145 |
| ARYKRKLLINDKG [F12K] | 0.128 |
| ARYERKLLINDFG [K4E] | 0.112 |
| ARYKRKLLTNDFG [I9T] | 0.0514 |
| ARYKRKLLPNDFG [I9P] | 0.409 |
| ARYKRKLLINDFP [G13P] | 0.491 |
| ARYKRFLLINDFG [K6F] | -0.0613 |
| ARYKRKLLDNDFG [I9D] | -0.2 |
| ARYKRKLLINRFG [D11R] | 0.179 |
| TRYKRKLLINDFG [A1T] | 0.302 |
| LRYKRKLLINDFG [A1L] | -0.511 |
| ARYKRKLLINMFG [D11M] | 0.874 |
| ARYKRKGLINDFG [L7G] | 0.0251 |

Series 5 — method: protein-binding microarray; form: double-stranded DNA, one strand shown; medium: in vitro; concentration: 940 nM top; notes: 60-bp whole probe; with: salmon DNA 0.4 mg/ml; relative to: random background probes; reading: higher = stronger binding; shared flanks, not repeated: GCCTAGCAC … GTCTTGATTCGCTTGACGCTGCTG
Target: Interferon regulatory factor 5, full length, phosphomimetic (IRF5, Homo sapiens, UniProt Q13568-2, residues 1-514, S451D/S453D/S456D/S462D)
| Oligonucleotide | fitted relative affinity |
| --- | --- |
| GTCGGACTGGGTCTCGGGACGTGCTAG | -0.254 z-score |
| GACGATATCGGGTTTCGAGATGTGCTA | 2.35 z-score |
| GTAGGTATCCTTATCCTTTAGTGCTAG | 0.273 z-score |
| TCAATGGTCCTGGTTTCAACTGTGCTA | 0.847 z-score |
| TCATGTTTTTTTCTACTACTGTGCTAG | 1.47 z-score |
| GACGGTCCCGGTCTCGGGACGTGCTAG | 0.595 z-score |
| TTAGATATCGGGTATGGATTAGTGCTA | 0.747 z-score |
| TTAGAACTAGGGTATCGATTAGTGCTA | 1.38 z-score |
| TTAGATATCAGGTATCGATTAGTGCTA | 3.13 z-score |
| GACTGTCTCCTTTTCCTGACGTGCTAG | 1.1 z-score |
| TTCGGTTTCGGGTATCGGTTAGTGCTA | 11.1 z-score |
| TTAGGTATCAGTCTCGGTTAGTGCTAG | 5.24 z-score |
| TTAGAACTGGGTCTCGATTAGTGCTAG | 1.15 z-score |
| TGAGGACTGGACTTTCGGTTAGTGCTA | 2.42 z-score |
| GACGGTTTCGGTTCCGGGGCGTGCTAG | 14.2 z-score |
| GACGATATCGGGACTGGAAACGTGCTA | 0.0789 z-score |
| TTAGCTTTCGACTTTCGGTTAGTGCTA | 5.07 z-score |
| GACGGACTGCTTATCCTGTCGTGCTAG | 0.199 z-score |
| TAAGATTTCAGTTCCGATTAGTGCTAG | 1.72 z-score |
| CTAGGACTGGACTTTCGGTTAGTGCTA | 2.39 z-score |
| TTAGCTATCAGTTTCGATTAGTGCTAG | 7.61 z-score |
| TTAGAACTGGGCTATCGATTAGTGCTA | -0.552 z-score |
| TTAGGTTTCTGTTTCGGTTAGTGCTAG | 10.2 z-score |
| TCGGGTCTCCCTTGAGGTTTGTGCTAG | 0.135 z-score |
| TCATTTTCCTAATTGAAACTGTGCTAG | 0.672 z-score |

Excerpt of the above (series 5):
| Oligonucleotide | fitted relative affinity |
| --- | --- |
| TCATGTTTTTTTCTACTACTGTGCTAG | 1.47 z-score |
| CTAGGACTGGACTTTCGGTTAGTGCTA | 2.39 z-score |
| GTAGGTATCCTTATCCTTTAGTGCTAG | 0.273 z-score |
| TTAGAACTGGGCTATCGATTAGTGCTA | -0.552 z-score |
| GACGGACTGCTTATCCTGTCGTGCTAG | 0.199 z-score |
| TAAGATTTCAGTTCCGATTAGTGCTAG | 1.72 z-score |
| GTCGGACTGGGTCTCGGGACGTGCTAG | -0.254 z-score |
| TGAGGACTGGACTTTCGGTTAGTGCTA | 2.42 z-score |
| GACGATATCGGGACTGGAAACGTGCTA | 0.0789 z-score |
| GACGGTCCCGGTCTCGGGACGTGCTAG | 0.595 z-score |
| GACGATATCGGGTTTCGAGATGTGCTA | 2.35 z-score |
| TTAGCTTTCGACTTTCGGTTAGTGCTA | 5.07 z-score |
